Measurements from different studies.

SMILES	assay	system	setting	how to read	measurement	value
CC(=O)c1cc(C(=O)N[C@@H](C)Cn2ccc(-c3ccc(C#N)c(Cl)c3)n2)[nH]n1		human, fasted, plasma	oral, 300 mg darolutamide tablet, median		tmax	2 h
COc1nnc2ccc(N3CCC(c4ccc(OCCN5CCN(C)C(=O)[C@H]5C)cc4)CC3)nn12		human, plasma	oral, 2 mg once daily, single dose, monotherapy		Tmax	0.5 h
COc1cc(C(=O)NC2CCN(C)CC2)c(F)cc1Nc1ncc(C(F)(F)F)c(Oc2cccc3c2C(=O)N(C)C3)n1		human patients, plasma	oral, 300 mg once daily repeated, median		Tmax at steady state	2.5 h
COc1cc(N2CCC(N3CCN(C)CC3)CC2)ccc1Nc1ncnc(Nc2ccccc2S(=O)(=O)C(C)C)n1		human, plasma	oral, 75 mg, day 1		tmax	3.63 h
Cc1cn(C(=O)c2c(-c3c(Cl)cc(Cl)cc3Cl)noc2C(C)(C)F)c2cccc(/C=C/C(=O)O)c12		human patients	250 mg bid, cycle 8 day 1		Tmax	2.25 h
CCO		human, breath	0.5 g/kg, added: 10 mg co-dosed drug		Tmax (median)	0.53 h
CN(C)N=Nc1[nH]cnc1C(N)=O		human patients, plasma	intravenous, 1000 mg/m^2 over 1 h, cycle 2 day 1, co-administered with another drug		Tmax (median)	1 h
CCCOc1ccc(NC(=O)CN2CCN(C)CC2)cc1-c1nc(CC)c(CC)c(=O)[nH]1		human, fasting, plasma	oral, 10 mg, added: alcohol 0.5 g/kg		Tmax (median)	1.5 h
C=CC(=O)Nc1cc(Nc2nccc(-c3cn(C)c4ccccc34)n2)c(OC)cc1N(C)CCN(C)C		human, plasma	oral, cycle 3 day 1, safety run-in, added: carboplatin plus pemetrexed		Tmax at steady state	6 h
Cc1nc2ccc(F)cc2n1-c1nc(N)c(F)c(Nc2ccc(C(F)(F)F)cc2)n1		human patients, plasma	oral, 300 mg twice weekly, cycles 1 and 2 pooled		Tmax median	4 h
Cc1ccc(C)c(OCCCC(C)(C)C(=O)O)c1		human	dose not given, added: lopinavir-ritonavir	baseline: without lopinavir-ritonavir	Tmax change	no effect
Cc1cc(-c2nnc(N)nc2-c2ccc(F)cc2)cc(Cl)n1		human patients, plasma	oral, 100 mg nanosuspension, single dose, median		Tmax	1 h
Cc1noc(C)c1-c1cc(C(O)(c2ccccn2)c2ccccn2)c2nc(C3CC3)[nH]c2c1		human male patients, fasted, plasma	oral, 3 mg once daily, cycle 1 day 8		Tmax	0.66 h
COc1ncc(-c2nc3c(n2C(C)C)[C@H](c2ccc(Cl)cc2)N(c2cc(Cl)cn(C)c2=O)C3=O)c(OC)n1	LC-MS/MS, noncompartmental	human, plasma	oral, 2 mg, C1D8, low-dose, median		Tmax	2.9 h
O=C(Nc1cnccc1Cl)N1CCN(Cc2ccc3c(c2)OC(F)(F)O3)CC1		human healthy young men, plasma	oral, 75 mg once daily, day 10, multiple dose median		tmax	3 h
Cc1cc(C)c(CNC(=O)c2cc(Cl)c3c(c2C)O[C@@](C)([C@H]2CC[C@H](N(C)C)CC2)O3)c(=O)[nH]1		human, plasma	oral, 200 mg, cycle 1 day 1		Tmax total drug	2 h
COc1cc(C(=O)NC2CCN(C)CC2)c(F)cc1Nc1ncc(C(F)(F)F)c(Oc2cccc3c2C(=O)N(C)C3)n1		human, Japanese, plasma	oral, 200 mg once daily multiple dose, median		Tmax steady state	2.95 h
C=CC(=O)Nc1cc(Nc2nccc(-c3c[nH]c4ccccc34)n2)c(OC)cc1N(C)CCN(C)C		human, plasma	cycle 3 day 1, safety run-in, added: carboplatin plus pemetrexed		Tmax at steady state	5.9 h
Cc1ccc([C@@H]2O[C@H](CO)[C@@H](O)[C@H](O)[C@H]2O)cc1Cc1ccc(-c2ccc(F)cc2)s1		human, maintenance hemodialysis patients	oral, 100 mg once daily, steady state, median		tmax	2.8 h
CCNCc1cc(Nc2ccnc3cc(Cl)ccc23)ccc1O		humans, both sexes, plasma	oral, outlier included	baseline: fixed over non-fixed combination	Tmax ratio	0.82
C[C@@H](Cn1ccc(-c2ccc(C#N)c(Cl)c2)n1)NC(=O)c1cc([C@@H](C)O)[nH]n1		human, fasted, plasma	oral, 300 mg darolutamide tablet, median		tmax	1.75 h
Cc1cc(Nc2ncnc3ccc(NC4=NC(C)(CO)CO4)cc23)ccc1Oc1ccn2ncnc2c1 (stereo not drawn)		human, plasma	tucatinib, day 10, added: rifampin once daily		Tmax (median)	1 h
O=C(COc1ccc(Cl)cc1)NC12CC(c3nnc([C@H]4C[C@@H](OC(F)(F)F)C4)o3)(C1)C2		healthy human both sexes, plasma	oral, 45 mg once daily, day 1, median fasted		tmax	14 h
CC#CC(=O)N1CC[C@@H](n2c(=O)n(-c3ccc(Oc4ccccc4)cc3)c3c(N)ncnc32)C1		human, fasted, plasma	oral, 300 mg twice daily, cycle 1 day 28		Tmax (median)	2.06 h
N#Cc1ccc2c(c1)[C@H]1CCCN(C(=O)c3ccc4[nH]cnc4c3)[C@H]1C2		human, plasma	oral, 80 mg once daily, steady state, median		tmax steady state	0.834 h
COC(=O)N[C@@H](C)CNc1nccc(-c2cn(C(C)C)nc2-c2cc(Cl)cc(NS(C)(=O)=O)c2F)n1		humans, plasma	oral, day 1, single dose, added: binimetinib		Tmax median	1.87 h
N#Cc1ccc(C(c2ccc(C#N)cc2)n2cncn2)cc1		human	150 mg		Tmax at steady state	1.9 h

Some of these lines once more:
SMILES	assay	system	setting	how to read	measurement	value
Cc1ccc(C)c(OCCCC(C)(C)C(=O)O)c1		human	dose not given, added: lopinavir-ritonavir	baseline: without lopinavir-ritonavir	Tmax change	no effect
Cc1cc(-c2nnc(N)nc2-c2ccc(F)cc2)cc(Cl)n1		human patients, plasma	oral, 100 mg nanosuspension, single dose, median		Tmax	1 h
Cc1noc(C)c1-c1cc(C(O)(c2ccccn2)c2ccccn2)c2nc(C3CC3)[nH]c2c1		human male patients, fasted, plasma	oral, 3 mg once daily, cycle 1 day 8		Tmax	0.66 h
